Assay results of several laboratories.
Every numbered part comes from another study and shows a few of its results, in no order. Several values in a cell are separate wells, animals, samples, runs or records.

Study 1
SMILES: CCN1/C(=C/C=C2\CCCC(/C=C/C3=[N+](CC)c4ccccc4C3(C)C)=C2NCCCCCCCCN2CCC(Nc3nc4ccccc4n3Cc3ccc(F)cc3)CC2)C(C)(C)c2ccccc21
Cell line: U-87 MG
Tested at: concentration not given
Reference: DMSO
Measurement: log2 fold change
measured: UBA7 mRNA: -1.31
measured: EXOC3L1 mRNA: -3.94
measured: E2F8 mRNA: -2.47
measured: SCN2A mRNA: -2.63
measured: PSRC1 mRNA: -2.55

Study 2
SMILES: Cc1ncc(-c2cc3c(Cl)c(-c4c(C)ccc(O)c4C)cnc3[nH]2)cn1
Target: Membrane-associated tyrosine- and threonine-specific cdc2-inhibitory kinase (PKMYT1, Homo sapiens, UniProt Q99640)
Observed: binding
Technique: HTRF
Measurement: inhibition
Target sequence (Q99640 1-499): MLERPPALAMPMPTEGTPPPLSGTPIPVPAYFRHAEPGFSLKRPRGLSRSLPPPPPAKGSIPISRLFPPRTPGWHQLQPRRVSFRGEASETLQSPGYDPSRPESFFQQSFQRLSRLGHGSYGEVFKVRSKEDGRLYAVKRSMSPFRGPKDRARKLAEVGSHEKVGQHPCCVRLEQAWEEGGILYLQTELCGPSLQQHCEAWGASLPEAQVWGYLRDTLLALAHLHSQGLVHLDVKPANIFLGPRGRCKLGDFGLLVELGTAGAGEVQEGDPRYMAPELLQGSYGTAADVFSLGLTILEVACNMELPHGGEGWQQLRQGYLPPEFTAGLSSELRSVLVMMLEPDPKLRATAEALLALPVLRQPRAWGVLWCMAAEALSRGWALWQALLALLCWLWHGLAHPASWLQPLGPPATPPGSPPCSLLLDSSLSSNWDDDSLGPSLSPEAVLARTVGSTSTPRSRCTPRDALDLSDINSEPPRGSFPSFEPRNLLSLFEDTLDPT
123.46 nM: 19.1% and 16.4%
0.51 nM: -13.5% and -6.51%
3333.33 nM: 96.3% and 95%

Other studies, line by line
Cc1ncsc1-c1ccc(C(CO)NC(=O)C2CC(O)CN2C(=O)C(C(C)C)n2cc(-c3ccc(COc4c(-c5c(C)c(F)cc6[nH]ncc56)c(C5CC5)cc5c(N6CC7CC6CN7)nc(OC6CCOCC6)nc45)cc3)nn2)cc1 (stereo not shown) — tumour volume (PK-1 xenograft, mouse; 30 mg/kg twice weekly, day 14): 135 mm3 and 173 mm3 and 172 mm3 and 96.9 mm3 and 149 mm3
Cc1nc(C)c(C=[N+]([O-])C(C)(C)C)nc1C — CDK5 protein level (CDK5; Western blot; MPTP mouse model; 10 mg/kg, unit not given; reference: β-actin): 202 and 123 and 182 and 172
